{"data": "Measured values pooled from the literature", "AGER": "Advanced glycosylation end product-specific receptor (AGER, Homo sapiens, UniProt Q15109)", "DNMT3B with DNMT3L": "DNA (cytosine-5)-methyltransferase 3B, with DNMT3L (DNMT3B, Homo sapiens, UniProt Q9UBC3)", "Cacna1b": "Voltage-dependent N-type calcium channel subunit alpha-1B (Cacna1b, Rattus norvegicus, UniProt Q02294)", "SIRT2": "NAD-dependent protein deacetylase sirtuin-2 (SIRT2, Homo sapiens, UniProt Q8IXJ6)", "JAK2": "Tyrosine-protein kinase JAK2 (JAK2, Homo sapiens, UniProt O60674)", "SRD5A1": "3-oxo-5-alpha-steroid 4-dehydrogenase 1 (SRD5A1, Homo sapiens, UniProt P18405)", "note": "“And” joins repeats or separate records; there may be more than shown. ± gives the spread as reported.", "chain of UniProt Q15109 (whole entry, looked up)": "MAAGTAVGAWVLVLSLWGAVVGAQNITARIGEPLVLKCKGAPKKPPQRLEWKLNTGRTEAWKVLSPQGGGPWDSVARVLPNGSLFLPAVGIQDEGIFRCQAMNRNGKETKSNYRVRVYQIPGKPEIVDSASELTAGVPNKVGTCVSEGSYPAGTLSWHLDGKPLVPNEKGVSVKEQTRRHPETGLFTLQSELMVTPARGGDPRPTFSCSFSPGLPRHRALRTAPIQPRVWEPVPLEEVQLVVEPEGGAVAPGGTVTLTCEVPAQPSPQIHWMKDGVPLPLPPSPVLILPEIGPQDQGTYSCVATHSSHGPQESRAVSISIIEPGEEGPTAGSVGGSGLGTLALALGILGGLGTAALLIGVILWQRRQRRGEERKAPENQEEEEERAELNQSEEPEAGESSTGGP", "chain of UniProt O60674 (whole entry, looked up)": "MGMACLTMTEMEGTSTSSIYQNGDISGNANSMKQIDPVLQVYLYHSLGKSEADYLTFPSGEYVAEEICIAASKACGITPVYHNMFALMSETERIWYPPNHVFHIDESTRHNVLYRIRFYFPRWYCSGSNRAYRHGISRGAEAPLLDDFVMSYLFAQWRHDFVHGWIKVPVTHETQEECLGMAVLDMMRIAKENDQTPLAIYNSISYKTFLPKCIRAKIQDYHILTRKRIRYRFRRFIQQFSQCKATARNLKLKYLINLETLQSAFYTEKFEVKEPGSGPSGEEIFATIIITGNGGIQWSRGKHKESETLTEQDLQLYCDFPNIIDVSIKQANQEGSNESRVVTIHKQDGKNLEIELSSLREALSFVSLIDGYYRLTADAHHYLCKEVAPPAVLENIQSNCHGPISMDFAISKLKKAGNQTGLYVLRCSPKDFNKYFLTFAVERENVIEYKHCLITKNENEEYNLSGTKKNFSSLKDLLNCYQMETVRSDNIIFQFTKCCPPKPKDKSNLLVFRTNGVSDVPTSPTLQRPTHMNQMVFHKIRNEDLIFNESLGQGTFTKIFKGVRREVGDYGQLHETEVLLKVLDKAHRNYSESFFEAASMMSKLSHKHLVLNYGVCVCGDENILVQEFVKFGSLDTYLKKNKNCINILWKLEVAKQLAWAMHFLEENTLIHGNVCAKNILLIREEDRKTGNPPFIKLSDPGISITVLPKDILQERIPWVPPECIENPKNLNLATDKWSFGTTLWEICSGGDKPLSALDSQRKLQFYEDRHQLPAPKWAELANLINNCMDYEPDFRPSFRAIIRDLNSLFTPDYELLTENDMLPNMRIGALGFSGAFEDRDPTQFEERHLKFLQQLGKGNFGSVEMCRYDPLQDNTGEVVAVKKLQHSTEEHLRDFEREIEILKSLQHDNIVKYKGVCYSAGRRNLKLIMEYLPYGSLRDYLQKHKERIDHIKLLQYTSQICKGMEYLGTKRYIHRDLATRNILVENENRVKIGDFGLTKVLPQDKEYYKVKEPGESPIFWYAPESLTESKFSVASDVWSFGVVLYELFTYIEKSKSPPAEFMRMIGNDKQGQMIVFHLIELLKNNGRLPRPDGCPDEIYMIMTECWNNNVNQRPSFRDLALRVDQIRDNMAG", "chain of UniProt Q8IXJ6 (whole entry, looked up)": "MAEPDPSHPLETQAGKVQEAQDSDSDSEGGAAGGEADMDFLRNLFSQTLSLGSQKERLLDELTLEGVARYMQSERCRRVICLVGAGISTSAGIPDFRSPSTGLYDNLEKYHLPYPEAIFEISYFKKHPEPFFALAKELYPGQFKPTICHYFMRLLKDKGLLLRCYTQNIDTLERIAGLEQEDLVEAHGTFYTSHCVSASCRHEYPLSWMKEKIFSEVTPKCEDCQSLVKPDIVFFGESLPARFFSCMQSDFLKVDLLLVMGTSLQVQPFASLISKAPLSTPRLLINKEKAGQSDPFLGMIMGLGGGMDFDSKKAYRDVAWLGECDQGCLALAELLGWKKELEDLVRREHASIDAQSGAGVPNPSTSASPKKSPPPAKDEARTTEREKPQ", "chain of UniProt Q02294 (whole entry, looked up)": "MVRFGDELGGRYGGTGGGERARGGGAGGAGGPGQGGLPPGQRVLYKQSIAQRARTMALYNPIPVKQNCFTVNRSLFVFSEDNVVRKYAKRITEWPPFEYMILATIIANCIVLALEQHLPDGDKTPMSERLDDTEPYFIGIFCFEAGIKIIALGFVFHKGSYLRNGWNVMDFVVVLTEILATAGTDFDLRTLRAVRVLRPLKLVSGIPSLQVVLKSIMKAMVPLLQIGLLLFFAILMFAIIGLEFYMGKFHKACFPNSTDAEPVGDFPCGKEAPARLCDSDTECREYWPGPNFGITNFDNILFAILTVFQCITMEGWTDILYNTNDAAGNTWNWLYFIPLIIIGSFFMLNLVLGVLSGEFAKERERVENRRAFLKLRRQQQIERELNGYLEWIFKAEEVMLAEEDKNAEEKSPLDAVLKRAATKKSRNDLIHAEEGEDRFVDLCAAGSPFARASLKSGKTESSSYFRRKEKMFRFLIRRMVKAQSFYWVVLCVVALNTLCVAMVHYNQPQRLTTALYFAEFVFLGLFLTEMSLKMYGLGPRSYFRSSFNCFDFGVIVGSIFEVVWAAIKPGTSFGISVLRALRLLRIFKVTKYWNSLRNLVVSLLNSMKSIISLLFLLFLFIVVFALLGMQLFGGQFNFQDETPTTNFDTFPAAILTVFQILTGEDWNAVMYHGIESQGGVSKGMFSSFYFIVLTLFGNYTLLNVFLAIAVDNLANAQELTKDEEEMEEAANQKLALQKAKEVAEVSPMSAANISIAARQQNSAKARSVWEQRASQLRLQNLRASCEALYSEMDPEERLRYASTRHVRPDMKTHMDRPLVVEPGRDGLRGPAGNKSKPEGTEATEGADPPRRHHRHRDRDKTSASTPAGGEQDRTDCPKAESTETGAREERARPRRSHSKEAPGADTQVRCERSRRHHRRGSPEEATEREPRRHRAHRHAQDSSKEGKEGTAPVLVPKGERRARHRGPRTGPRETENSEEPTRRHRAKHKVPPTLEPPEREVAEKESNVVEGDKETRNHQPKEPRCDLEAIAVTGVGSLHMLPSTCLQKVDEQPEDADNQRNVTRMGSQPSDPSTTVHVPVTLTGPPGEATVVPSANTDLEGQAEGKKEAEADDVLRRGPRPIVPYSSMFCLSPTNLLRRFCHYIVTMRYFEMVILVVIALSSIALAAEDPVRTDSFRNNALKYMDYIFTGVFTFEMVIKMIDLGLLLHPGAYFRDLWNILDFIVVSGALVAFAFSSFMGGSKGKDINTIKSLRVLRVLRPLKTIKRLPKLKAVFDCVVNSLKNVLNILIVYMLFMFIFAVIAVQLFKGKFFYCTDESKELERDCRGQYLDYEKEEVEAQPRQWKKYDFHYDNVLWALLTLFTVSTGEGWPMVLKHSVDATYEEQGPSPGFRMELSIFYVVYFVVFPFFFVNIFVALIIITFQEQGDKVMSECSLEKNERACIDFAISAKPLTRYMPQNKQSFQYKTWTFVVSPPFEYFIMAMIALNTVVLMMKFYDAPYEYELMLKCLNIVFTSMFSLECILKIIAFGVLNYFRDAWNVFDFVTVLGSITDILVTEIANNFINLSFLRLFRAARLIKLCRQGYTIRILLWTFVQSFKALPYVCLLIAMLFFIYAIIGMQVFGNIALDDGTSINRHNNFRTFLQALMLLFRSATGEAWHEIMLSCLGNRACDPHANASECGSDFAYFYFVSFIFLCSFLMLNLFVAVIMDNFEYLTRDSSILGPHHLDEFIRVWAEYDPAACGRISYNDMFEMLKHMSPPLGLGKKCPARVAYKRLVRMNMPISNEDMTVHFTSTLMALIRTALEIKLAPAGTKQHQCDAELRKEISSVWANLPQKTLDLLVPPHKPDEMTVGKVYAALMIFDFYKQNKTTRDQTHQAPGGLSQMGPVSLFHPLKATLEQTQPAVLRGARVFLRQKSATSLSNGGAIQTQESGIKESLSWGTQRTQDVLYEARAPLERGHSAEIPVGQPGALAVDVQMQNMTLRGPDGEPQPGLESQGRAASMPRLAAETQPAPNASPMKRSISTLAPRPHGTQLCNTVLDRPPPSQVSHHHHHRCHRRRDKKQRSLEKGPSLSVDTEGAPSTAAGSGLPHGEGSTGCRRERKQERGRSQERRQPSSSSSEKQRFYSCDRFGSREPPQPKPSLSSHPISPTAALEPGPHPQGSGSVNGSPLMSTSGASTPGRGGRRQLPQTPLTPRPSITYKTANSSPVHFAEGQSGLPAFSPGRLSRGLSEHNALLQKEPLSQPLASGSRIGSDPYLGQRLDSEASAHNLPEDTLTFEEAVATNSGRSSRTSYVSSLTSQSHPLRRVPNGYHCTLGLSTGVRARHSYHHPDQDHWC", "chain of UniProt P18405 (whole entry, looked up)": "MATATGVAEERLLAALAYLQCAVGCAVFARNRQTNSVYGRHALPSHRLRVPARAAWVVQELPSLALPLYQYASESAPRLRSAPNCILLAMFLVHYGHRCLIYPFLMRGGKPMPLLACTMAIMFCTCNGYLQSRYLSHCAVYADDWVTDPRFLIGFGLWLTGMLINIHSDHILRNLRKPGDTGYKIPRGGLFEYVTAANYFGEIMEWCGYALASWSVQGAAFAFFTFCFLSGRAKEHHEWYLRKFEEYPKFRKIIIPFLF", "chain of UniProt P28907 (whole entry, looked up)": "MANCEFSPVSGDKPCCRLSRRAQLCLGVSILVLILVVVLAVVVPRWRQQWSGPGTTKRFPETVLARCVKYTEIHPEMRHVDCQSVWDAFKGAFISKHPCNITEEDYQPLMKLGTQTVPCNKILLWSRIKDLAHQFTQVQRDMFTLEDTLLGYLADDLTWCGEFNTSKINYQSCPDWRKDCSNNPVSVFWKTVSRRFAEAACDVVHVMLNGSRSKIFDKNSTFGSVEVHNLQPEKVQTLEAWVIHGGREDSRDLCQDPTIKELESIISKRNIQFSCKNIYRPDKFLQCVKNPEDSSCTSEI"}
{"Compound": "O=C(Nc1ccc(Cl)cc1)Nc1ccc(C2=NNC(c3ccc(NC(=O)Nc4ccc(Cl)cc4)cc3)C2)cc1 (stereo not shown)", "target": "AGER", "conditions": "100 µM", "inhibition": "94%"}
{"Compound": "C/C=C/C(=O)Nc1ccc2nc(NCCCCCN(C)C)nc(NCCCCCCN(C)C)c2c1", "target": "DNMT3B with DNMT3L", "assay": "enzyme activity", "conditions": "10 µM", "inhibition": "-26%"}
{"Compound": "CCn1cc(C(=O)O)c(=O)c2c(N)c(F)c(NC3CCCCC3)cc21", "target": "5'-AMP-activated protein kinase catalytic subunit alpha-2, with beta1 gamma1 (PRKAA2, Homo sapiens, UniProt P54646)", "assay": "kinase activity", "conditions": "0.1 µM, together with: ATP at Km", "inhibition": "-5.7%"}
{"Compound": "Cc1ccc(N(O)/N=N/c2ccc(S(=O)(=O)Nc3nccs3)cc2)cc1", "target": "α-glucosidase, rat intestine", "assay": "enzyme activity", "conditions": "180 µg/mL, together with: 4-nitrophenyl α-D-glucopyranoside", "inhibition": "30 ± 0.04%"}
{"Compound": "CCCCCNC(=O)N1N=C(c2ccc(NC(=O)Nc3ccc(Cl)cc3)cc2)CC1c1ccc(Br)cc1 (stereo not shown)", "target": "AGER", "conditions": "100 µM", "inhibition": "32%"}
{"Compound": "C#CCOC(=O)[C@]1(C)C=C(C(=O)OC(C)(C)C)C(=O)CC1", "target": "MAPK14 (Homo sapiens, UniProt Q16539)", "assay": "kinase activity, inhibitor, Kinase-Glo luminescence", "conditions": "10 µM", "inhibition": "no inhibition"}
{"Compound": "COc1ccc(NC(=O)/C(=C/c2ccc(Cl)cc2Cl)Sc2ccc(OC)cc2)cc1", "target": "AGER", "assay": "AGE2-BSA binding, inhibitor, competitive ELISA", "conditions": "100 µM, 60 min, together with: AGE2-BSA", "inhibition": "0%"}
{"Compound": "Cn1ccc2cc(-n3c(=O)[nH]c4sc5c(c4c3=O)CCCC5)ccc21", "target": "Cacna1b", "assay": "cell-free assay", "conditions": "10 µM", "inhibition": "-8%"}
{"Compound": "COc1ccc(NC(=O)Nc2ccc(C3=NNC(c4ccc(Br)cc4)C3)cc2)cc1 (stereo not shown)", "target": "AGER", "conditions": "100 µM", "inhibition": "12%"}
{"Compound": "O=C1c2sc(-c3ccc(N4CCC(F)C4)nc3F)nc2CCN1c1cccnc1 (stereo not shown)", "target": "Cacna1b", "assay": "ligand displacement, radioligand", "conditions": "1 µM", "inhibition": "1%"}
{"Compound": "CC(=S)NCCCC[C@H](NC(=O)OCc1ccccc1)C(=O)N[C@@H](Cc1c[nH]c2ccccc12)C(=O)NC(C)C", "target": "SIRT2", "assay": "enzyme activity, inhibitor", "conditions": "1 µM", "inhibition": "14%"}
{"Compound": "Cc1cnc2nc1Nc1cccc(c1)COCc1cc(ccc1OCCN1CCOCC1)N2", "target": "JAK2", "assay": "inhibitor, Z'-LYTE kinase", "conditions": "111.1 nM", "inhibition": "72.5% and 73.9% and 74.9%"}
{"Compound": "CN(C)C/C=C/C(=O)Nc1ccc2nc(NCCCCCN(C)C)nc(NCCCCCCN(C)C)c2c1", "target": "DNMT3B with DNMT3L", "assay": "enzyme activity", "conditions": "50 µM", "inhibition": "-10%"}
{"Compound": "COCC(=O)N1CCc2cc(-c3csc(NC(=O)c4cc(OC)cc(OC)c4)n3)ccc21", "target": "Estrogen receptor (ESR1, Homo sapiens, UniProt P03372)", "assay": "cell-free assay", "conditions": "10 µM", "inhibition": "6%"}
{"Compound": "N=C(N)NCCCC(NC(=O)C(CC(=O)NO)Cc1ccc2ccccc2c1)C(=O)NC(Cc1c[nH]c2ccccc12)C(=O)NC(CCC(=O)O)C(N)=O (stereo not shown)", "target": "ADAM17 (Homo sapiens, UniProt P78536)", "conditions": "1 µM", "inhibition": "34%"}
{"Compound": "CC(C)NC(=O)[C@H](CCc1ccccc1)NC(=O)[C@H](CC(=O)NCC(C)(C)C)NC(=O)CCc1ccccc1", "target": "Cathepsin B (CTSB, Homo sapiens, UniProt P07858)", "assay": "enzyme activity, inhibitor", "conditions": "100 µM", "inhibition": "-8%"}
{"Compound": "CC(C)(C)c1ccccc1OS(=O)(=O)Oc1cccc(C(=O)NO)c1", "target": "HDAC2 (Homo sapiens, UniProt Q92769)", "assay": "enzyme activity, inhibitor, fluorescence", "conditions": "10 µM", "inhibition": "15%"}
{"Compound": "O=C(NC1CCC1)[C@H](Cc1c[nH]c2ccccc12)NC(=O)[C@H](CCCCNC(=S)NCCc1noc(=O)[nH]1)NS(=O)(=O)c1cccc(F)c1", "target": "SIRT2", "assay": "enzyme activity, inhibitor", "conditions": "10 µM", "inhibition": "7%"}
{"Compound": "CO[C@@H](C)c1c(NC(=O)Nc2cnc(-n3nccn3)c(C(F)(F)F)c2)cnc2sc(C)nc12", "target": "CCR1 (Homo sapiens, UniProt P32246)", "assay": "ligand displacement, radioligand", "conditions": "10 µM", "inhibition": "-3.6%"}
{"Compound": "Cc1cccc(O[C@H]2CCC[C@@H](C(C)CNCc3ccncc3)C2)c1 (relative stereo)", "target": "TSSK2 (Homo sapiens, UniProt Q96PF2)", "assay": "enzyme activity, inhibitor", "conditions": "1 µM", "inhibition": "1%"}
{"Compound": "C[Si](C)(C)C[C@H](CN)CC(=O)O", "target": "SSTR2 (Homo sapiens, UniProt P30874)", "assay": "ligand displacement, radioligand", "conditions": "250 µM", "inhibition": "4%"}
{"Compound": "Cc1cnc2nc1Nc1cc(F)cc(c1)COC/C=C/COCc1cc(ccc1OCCN1CCCC1)N2", "target": "JAK2", "assay": "inhibitor, Z'-LYTE kinase", "conditions": "4.115 nM", "inhibition": "49.2% and 38.6% and 39.5%"}
{"Compound": "O=C1c2sc(-c3ccc(N4CCC(CO)CC4)nc3F)nc2CCN1c1cccnc1", "target": "Maoa (Rattus norvegicus, UniProt P21396)", "assay": "ligand displacement, radioligand", "conditions": "1 µM", "inhibition": "13%"}
{"Compound": "Cn1sc(Nc2c(Cl)ccc3ncccc23)c(C#N)c1=O", "target": "CD38 (Homo sapiens, UniProt P28907)", "assay": "enzyme activity, inhibitor", "conditions": "10 µM", "inhibition": "1%"}
{"Compound": "CC(C)Cn1c(SCC(=O)N2CCc3ccccc3C2)nc2cc(Cl)ccc2c1=O", "target": "ADRA1B (Homo sapiens, UniProt P35368)", "assay": "ligand displacement, radioligand", "conditions": "10 µM", "inhibition": "-1%"}
{"Compound": "C=CC(=O)Nc1cccc(-c2cnc3[nH]cc(C(=O)NC(C)(C)C)c3n2)c1", "target": "CK1", "assay": "kinase activity", "conditions": "0.1 µM", "inhibition": "8%"}
{"Compound": "COc1cc(/C=C/C(=O)Oc2cc(C(F)(F)F)cc(C(F)(F)F)c2)ccc1O", "target": "SRD5A1", "assay": "enzyme activity in cells, inhibitor", "test system": "HaCaT", "conditions": "5 µM", "inhibition": "44.2%"}
{"Compound": "CC(=O)C12NC(C)(C)CC1(C)C(=O)C1=C2c2c(c3c4n2C(C)(C)CC2=C4C4(CC(C)(C)NC(C)(C4)C2=O)CC3(C)C)C(=O)C(C)(C)N1 (single isomer, unassigned; (-))", "target": "Potassium/sodium hyperpolarization-activated cyclic nucleotide-gated channel 1 (Homo sapiens, UniProt O60741)", "assay": "ion current, antagonist, whole-cell patch clamp", "test system": "HEK293T", "conditions": "10 µM", "inhibition": "-0.12 ± 0.04%"}
{"Compound": "Cc1cnc2nc1Nc1cccc(c1)COCCCCOCc1cc(ccc1OCCN1CCCC1)N2", "target": "JAK2", "assay": "inhibitor, Z'-LYTE kinase", "conditions": "370.37 nM", "inhibition": "68.5% and 56.9% and 69.1%"}
{"Compound": "COC(=O)/C=C/c1ccc(O)c(OC)c1", "target": "SRD5A1", "assay": "enzyme activity in cells, inhibitor", "test system": "HaCaT", "conditions": "50 µM", "inhibition": "19.9%"}
{"Compound": "CCC(=O)N(C)c1ccc(Cl)c(Cl)c1", "target": "Htr1b (Rattus norvegicus, UniProt P28564)", "assay": "ligand displacement, radioligand", "conditions": "10 µM", "inhibition": "< 10%"}
{"Compound": "CN1CCN(Cc2ccc(-c3ccc(CO[C@H]4CCC[C@@H]4NC(=O)c4cc(-c5cnn(C)c5)cnc4N)cc3)cc2)CC1", "target": "5'-AMP-activated protein kinase catalytic subunit alpha-2, with beta2 gamma1 (PRKAA2, Homo sapiens, UniProt P54646)", "assay": "SelectScreen kinase profiling", "conditions": "0.1 µM", "inhibition": "-3%"}
{"Compound": "c1ccc(OC[C@H]2CN(CCN3CCc4ccccc43)CCO2)nc1", "target": "DRD5 (Homo sapiens, UniProt P21918)", "assay": "radioligand binding", "conditions": "concentration not given, together with: [3H]SCH23390", "inhibition": "42.4%"}
{"Compound": "C=CC(=O)N1Cc2nc(-c3cc(-c4cc(Cl)cnc4Cl)c(F)cc3F)n(-c3ccncn3)c2C1", "target": "5'-AMP-activated protein kinase catalytic subunit alpha-2, with beta2 gamma3 (PRKAA2, Homo sapiens, UniProt P54646)", "assay": "kinome panel", "conditions": "1 µM", "inhibition": "10%"}
{"note": "Excerpt of the above:"}
{"Compound": "COc1ccc(NC(=O)Nc2ccc(C3=NNC(c4ccc(Br)cc4)C3)cc2)cc1 (stereo not shown)", "target": "AGER", "conditions": "100 µM", "inhibition": "12%"}
{"Compound": "O=C1c2sc(-c3ccc(N4CCC(F)C4)nc3F)nc2CCN1c1cccnc1 (stereo not shown)", "target": "Cacna1b", "assay": "ligand displacement, radioligand", "conditions": "1 µM", "inhibition": "1%"}
{"Compound": "CC(=S)NCCCC[C@H](NC(=O)OCc1ccccc1)C(=O)N[C@@H](Cc1c[nH]c2ccccc12)C(=O)NC(C)C", "target": "SIRT2", "assay": "enzyme activity, inhibitor", "conditions": "1 µM", "inhibition": "14%"}
